Results of several laboratories.
Each numbered part is a random draw from the data of one study; scales do not carry over between parts. Several values in a cell are separate wells, animals, samples, runs or records.
Chain of UniProt P41595 (whole entry, looked up): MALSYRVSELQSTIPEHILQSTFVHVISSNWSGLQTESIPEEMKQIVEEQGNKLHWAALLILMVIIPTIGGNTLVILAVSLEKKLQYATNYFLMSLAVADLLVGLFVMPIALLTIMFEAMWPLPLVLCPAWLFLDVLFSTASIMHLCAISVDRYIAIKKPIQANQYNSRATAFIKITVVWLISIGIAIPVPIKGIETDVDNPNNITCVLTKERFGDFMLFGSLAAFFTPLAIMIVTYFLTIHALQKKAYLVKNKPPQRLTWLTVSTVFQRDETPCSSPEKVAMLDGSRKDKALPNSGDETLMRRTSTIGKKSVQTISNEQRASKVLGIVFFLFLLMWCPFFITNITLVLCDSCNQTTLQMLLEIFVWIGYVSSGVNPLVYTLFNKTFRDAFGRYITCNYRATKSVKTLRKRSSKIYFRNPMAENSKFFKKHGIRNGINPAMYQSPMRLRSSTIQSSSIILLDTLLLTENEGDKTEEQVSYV
Chain of UniProt Q16513 (whole entry, looked up): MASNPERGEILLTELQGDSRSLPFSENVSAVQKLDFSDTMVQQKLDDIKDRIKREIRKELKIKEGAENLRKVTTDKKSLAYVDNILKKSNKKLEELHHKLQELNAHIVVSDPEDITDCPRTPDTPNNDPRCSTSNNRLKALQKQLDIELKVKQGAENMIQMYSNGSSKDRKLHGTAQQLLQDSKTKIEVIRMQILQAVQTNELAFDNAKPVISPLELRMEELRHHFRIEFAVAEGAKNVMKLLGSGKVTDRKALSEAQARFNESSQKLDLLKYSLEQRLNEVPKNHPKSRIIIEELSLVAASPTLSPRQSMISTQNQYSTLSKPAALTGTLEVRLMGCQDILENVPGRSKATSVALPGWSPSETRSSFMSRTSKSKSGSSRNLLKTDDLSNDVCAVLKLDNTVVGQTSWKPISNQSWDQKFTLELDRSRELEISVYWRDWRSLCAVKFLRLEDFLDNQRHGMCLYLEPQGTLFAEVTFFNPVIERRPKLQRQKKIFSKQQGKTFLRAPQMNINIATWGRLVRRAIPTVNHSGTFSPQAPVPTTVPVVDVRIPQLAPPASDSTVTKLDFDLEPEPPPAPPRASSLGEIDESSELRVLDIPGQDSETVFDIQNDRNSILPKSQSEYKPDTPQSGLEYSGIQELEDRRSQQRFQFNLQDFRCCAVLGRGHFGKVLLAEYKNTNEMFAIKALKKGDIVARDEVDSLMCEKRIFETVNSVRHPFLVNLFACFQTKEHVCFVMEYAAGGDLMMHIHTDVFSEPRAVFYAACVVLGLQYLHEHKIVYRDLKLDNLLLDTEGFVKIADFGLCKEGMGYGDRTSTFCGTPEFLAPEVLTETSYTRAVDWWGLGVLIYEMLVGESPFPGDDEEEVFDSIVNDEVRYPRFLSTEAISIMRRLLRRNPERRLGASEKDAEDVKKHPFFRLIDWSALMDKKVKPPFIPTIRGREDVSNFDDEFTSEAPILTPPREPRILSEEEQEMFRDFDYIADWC
Chain of UniProt O14965 (whole entry, looked up): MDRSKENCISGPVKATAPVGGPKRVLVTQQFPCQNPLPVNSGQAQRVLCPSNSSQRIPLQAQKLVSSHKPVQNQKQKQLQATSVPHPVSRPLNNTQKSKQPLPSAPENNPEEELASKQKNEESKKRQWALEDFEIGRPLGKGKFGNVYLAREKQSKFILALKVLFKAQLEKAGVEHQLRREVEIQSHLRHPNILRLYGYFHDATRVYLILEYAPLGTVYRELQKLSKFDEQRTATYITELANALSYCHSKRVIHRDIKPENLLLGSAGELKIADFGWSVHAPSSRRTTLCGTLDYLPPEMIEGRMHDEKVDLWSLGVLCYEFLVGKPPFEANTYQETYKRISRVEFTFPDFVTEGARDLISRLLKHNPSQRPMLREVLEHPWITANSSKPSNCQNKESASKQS
Chain of UniProt P50613 (whole entry, looked up): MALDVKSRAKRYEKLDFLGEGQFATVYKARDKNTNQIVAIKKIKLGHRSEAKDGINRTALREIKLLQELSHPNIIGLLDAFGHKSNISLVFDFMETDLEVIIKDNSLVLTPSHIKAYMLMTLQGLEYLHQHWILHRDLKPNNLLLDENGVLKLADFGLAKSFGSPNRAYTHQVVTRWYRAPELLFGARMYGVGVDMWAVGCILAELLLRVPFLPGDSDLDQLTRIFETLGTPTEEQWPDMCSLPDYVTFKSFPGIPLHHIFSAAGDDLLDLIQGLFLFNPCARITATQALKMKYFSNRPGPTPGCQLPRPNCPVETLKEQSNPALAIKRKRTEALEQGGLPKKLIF
Chain of UniProt P13945 (whole entry, looked up): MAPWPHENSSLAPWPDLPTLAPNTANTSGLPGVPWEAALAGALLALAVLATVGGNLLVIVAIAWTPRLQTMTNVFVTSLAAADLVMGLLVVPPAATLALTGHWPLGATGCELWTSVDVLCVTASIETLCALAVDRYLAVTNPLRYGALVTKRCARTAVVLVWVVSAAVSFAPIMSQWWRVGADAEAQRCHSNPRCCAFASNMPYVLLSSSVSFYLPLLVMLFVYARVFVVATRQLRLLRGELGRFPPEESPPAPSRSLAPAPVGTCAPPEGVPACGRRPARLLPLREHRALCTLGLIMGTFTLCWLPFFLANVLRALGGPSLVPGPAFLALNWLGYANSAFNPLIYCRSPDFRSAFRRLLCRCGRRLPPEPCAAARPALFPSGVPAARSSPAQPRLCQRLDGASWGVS
Chain of UniProt Q9H422 (whole entry, looked up): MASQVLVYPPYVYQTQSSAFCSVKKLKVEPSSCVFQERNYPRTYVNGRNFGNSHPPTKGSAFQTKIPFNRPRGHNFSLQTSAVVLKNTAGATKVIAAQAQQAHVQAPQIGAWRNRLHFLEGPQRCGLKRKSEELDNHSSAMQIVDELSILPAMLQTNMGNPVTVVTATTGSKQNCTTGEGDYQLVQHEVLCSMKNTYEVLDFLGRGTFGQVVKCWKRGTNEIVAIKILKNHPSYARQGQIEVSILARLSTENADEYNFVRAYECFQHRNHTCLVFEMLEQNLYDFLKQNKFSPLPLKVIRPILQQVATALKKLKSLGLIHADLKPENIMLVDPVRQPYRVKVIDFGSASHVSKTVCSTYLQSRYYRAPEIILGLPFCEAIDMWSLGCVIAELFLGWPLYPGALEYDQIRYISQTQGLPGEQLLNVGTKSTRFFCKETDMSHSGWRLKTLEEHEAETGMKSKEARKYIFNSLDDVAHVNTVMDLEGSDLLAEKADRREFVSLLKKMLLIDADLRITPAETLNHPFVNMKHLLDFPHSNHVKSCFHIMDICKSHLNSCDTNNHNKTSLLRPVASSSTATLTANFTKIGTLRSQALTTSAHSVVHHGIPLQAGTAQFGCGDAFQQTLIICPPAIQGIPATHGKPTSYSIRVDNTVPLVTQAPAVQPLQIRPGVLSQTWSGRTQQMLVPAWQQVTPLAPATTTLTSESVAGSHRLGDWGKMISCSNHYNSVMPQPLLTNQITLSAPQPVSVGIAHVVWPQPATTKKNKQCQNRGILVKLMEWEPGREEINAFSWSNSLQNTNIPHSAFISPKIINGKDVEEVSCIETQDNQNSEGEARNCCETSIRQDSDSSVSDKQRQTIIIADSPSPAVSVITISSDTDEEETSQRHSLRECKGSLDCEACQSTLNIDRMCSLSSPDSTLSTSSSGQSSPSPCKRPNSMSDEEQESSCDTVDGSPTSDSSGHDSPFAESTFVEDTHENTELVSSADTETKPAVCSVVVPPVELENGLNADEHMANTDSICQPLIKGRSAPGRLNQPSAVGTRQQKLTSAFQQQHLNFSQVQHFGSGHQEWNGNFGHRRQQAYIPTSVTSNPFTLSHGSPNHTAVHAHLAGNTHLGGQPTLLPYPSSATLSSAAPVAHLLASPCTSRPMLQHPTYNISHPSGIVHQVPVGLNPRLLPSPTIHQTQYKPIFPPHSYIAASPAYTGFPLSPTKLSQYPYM
Chain of UniProt Q9H3N8 (whole entry, looked up): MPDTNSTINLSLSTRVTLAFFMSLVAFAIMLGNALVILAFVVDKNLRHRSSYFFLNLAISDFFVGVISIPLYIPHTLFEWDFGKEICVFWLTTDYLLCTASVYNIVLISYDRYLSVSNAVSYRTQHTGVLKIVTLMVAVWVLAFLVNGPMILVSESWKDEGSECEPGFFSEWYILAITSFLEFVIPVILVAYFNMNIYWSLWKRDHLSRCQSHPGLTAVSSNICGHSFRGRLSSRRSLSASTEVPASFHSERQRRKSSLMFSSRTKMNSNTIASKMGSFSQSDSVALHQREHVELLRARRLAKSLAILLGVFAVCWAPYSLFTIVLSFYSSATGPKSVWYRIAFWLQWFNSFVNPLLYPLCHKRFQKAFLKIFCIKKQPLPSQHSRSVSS
Chain of UniProt P35408 (whole entry, looked up): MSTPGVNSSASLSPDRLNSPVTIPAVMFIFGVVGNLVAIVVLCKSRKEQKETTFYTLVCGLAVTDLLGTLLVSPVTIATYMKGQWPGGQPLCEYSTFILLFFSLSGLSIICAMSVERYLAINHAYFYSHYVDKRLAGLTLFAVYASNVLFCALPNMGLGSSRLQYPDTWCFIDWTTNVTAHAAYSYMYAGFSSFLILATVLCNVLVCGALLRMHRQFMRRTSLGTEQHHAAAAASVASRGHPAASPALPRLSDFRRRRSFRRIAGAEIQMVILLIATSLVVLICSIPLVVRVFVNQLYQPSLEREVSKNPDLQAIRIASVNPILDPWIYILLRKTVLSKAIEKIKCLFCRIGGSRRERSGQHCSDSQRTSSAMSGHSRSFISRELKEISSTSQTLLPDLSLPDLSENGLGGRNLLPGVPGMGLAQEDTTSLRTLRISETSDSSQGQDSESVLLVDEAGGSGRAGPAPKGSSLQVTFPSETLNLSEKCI
Chain of UniProt Q99720 (whole entry, looked up): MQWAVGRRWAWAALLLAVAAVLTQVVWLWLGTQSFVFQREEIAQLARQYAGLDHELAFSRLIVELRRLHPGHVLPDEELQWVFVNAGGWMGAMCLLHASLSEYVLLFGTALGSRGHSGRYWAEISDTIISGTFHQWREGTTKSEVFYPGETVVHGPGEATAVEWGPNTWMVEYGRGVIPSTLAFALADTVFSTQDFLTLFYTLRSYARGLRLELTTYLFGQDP

Series 1 — method: Incucyte 3D growth; concentration: 30 µM; direction: higher = more growth
Compound: CC(C)(C(=O)O)[C@H](NC(=O)Cc1cccc(I)c1)c1ccc2oc(=O)[nH]c2c1
It gave 5.8e+07 a.u. and 4.04e+07 a.u. and 3.39e+07 a.u. and 3.63e+07 a.u. and 4.67e+07 a.u. and 3.76e+07 a.u. for spheroid area (MEL-JUSO; 342.52 h).
IPC-298; 204 h — spheroid area: 2.27e+07 a.u. and 3.07e+07 a.u. and 3.1e+07 a.u. and 2.67e+07 a.u. and 2.77e+07 a.u. and 3.76e+07 a.u.
It gave 8.98e+07 a.u. and 1.02e+08 a.u. and 1.01e+08 a.u. and 1.08e+08 a.u. and 1.04e+08 a.u. and 1.24e+08 a.u. for spheroid area (A375; 174 h).
For IPC-298; 186 h: spheroid area read 3.05e+07 a.u. and 2.81e+07 a.u. and 2.68e+07 a.u. and 3.6e+07 a.u. and 2.16e+07 a.u. and 2.6e+07 a.u.
NCI-H1437; 66 h — spheroid area: 2.41e+07 a.u. and 2.77e+07 a.u. and 2.74e+07 a.u. and 2.95e+07 a.u. and 2.81e+07 a.u.
For MEL-JUSO; 54.52 h: spheroid area read 1.24e+07 a.u. and 1.35e+07 a.u. and 1.3e+07 a.u. and 1.27e+07 a.u. and 8.56e+06 a.u. and 1.61e+07 a.u.

Series 2 — effect on: β-arrestin recruitment; action: agonist; method: PRESTO-Tango; concentration: 10 µM; relative to: untreated
Compound: N=C(N)NC(=O)c1cnn(-c2cccc3ncccc23)c1C1CC1
The “fold over basal” was 1.33 (ACKR3 (Homo sapiens, UniProt P25106)).
It gave 1.04 fold for “fold over basal” (TRHR (Homo sapiens, UniProt P34981)).
The “fold over basal” was 0.89 (G-protein coupled receptor 78 (GPR78, Homo sapiens, UniProt Q96P69)).
The “fold over basal” was 0.8 fold (HCRTR2 (Homo sapiens, UniProt O43614)).
For PROKR1 (Homo sapiens, UniProt Q8TCW9): “fold over basal” read 1.25.
For PTGER4 (Homo sapiens, UniProt P35408): “fold over basal” read 1.
The “fold over basal” was 1.62 fold (TSHR (Homo sapiens, UniProt P16473)).
For Probable G-protein coupled receptor 19 (GPR19, Homo sapiens, UniProt Q15760): “fold over basal” read 0.83.
HTR2C (Homo sapiens, UniProt P28335) — “fold over basal”: 0.8.
The “fold over basal” was 1.77 (Probable G-protein coupled receptor 148 (GPR148, Homo sapiens, UniProt Q8TDV2)).
MCHR1 (Homo sapiens, UniProt Q99705) — “fold over basal”: 1.23.
The “fold over basal” was 0.87 (PRLHR (Homo sapiens, UniProt P49683)).
For SSTR5 (Homo sapiens, UniProt P35346): “fold over basal” read 1.63 fold.

Series 3 — effect on: cell-free assay; concentration: 10 µM
SMILES: Cn1nc(C(F)(F)F)cc1-c1cnc(N2CCc3cc(S(=O)(=O)Nc4c(F)cc(Cl)cc4F)cc(N4CCCC4=O)c32)nc1
The inhibition was 12.1% (HRH2 (Homo sapiens, UniProt P25021)).
It gave 18.5% for inhibition (ADRA2B (Homo sapiens, UniProt P18089)).
The inhibition was 9.09% (DRD4 (Homo sapiens, UniProt P21917)).
It gave -11.8% for inhibition (ADRB3 (Homo sapiens, UniProt P13945)).
It gave 10.2% for inhibition (HRH1 (Homo sapiens, UniProt P35367)).
The inhibition was 7.43% (CHRM5 (Homo sapiens, UniProt P08912)).
ADRA1D (Homo sapiens, UniProt P25100) — inhibition: -4.04%.
It gave 41.2% for inhibition (CHRM4 (Homo sapiens, UniProt P08173)).
The inhibition was 4.33% (ADRA1B (Homo sapiens, UniProt P35368)).
It gave 4.51% for inhibition (HTR7 (Homo sapiens, UniProt P34969)).
The inhibition was 10.9% (HRH4 (Homo sapiens, UniProt Q9H3N8)).
For CHRM2 (Homo sapiens, UniProt P08172): inhibition read -10.6%.
It gave 12.8% for inhibition (SIGMAR1 (Homo sapiens, UniProt Q99720)).
The inhibition was 24.7% (HTR2B (Homo sapiens, UniProt P41595)).
For DRD2 (Homo sapiens, UniProt P14416): inhibition read -0.24%.

Series 4 — SMILES: CC(=O)c1ccc(N2CCOCC2)cc1O; effect on: enzyme activity; action: inhibitor; concentration: 0.5 µM; relative to: control
For PRKD1 (Homo sapiens, UniProt Q15139): remaining activity read 102%.
For CAMK1G (Homo sapiens, UniProt Q96NX5): remaining activity read 101%.
The remaining activity was 102% (PTK2B (Homo sapiens, UniProt Q14289)).
NTRK3 (Homo sapiens, UniProt Q16288) — remaining activity: 101%.
EGFR (Homo sapiens, UniProt P00533) — remaining activity: 97.4%.
It gave 109% for remaining activity (MAP3K2 (Homo sapiens, UniProt Q9Y2U5)).
It gave 108% for remaining activity (GRK5 (Homo sapiens, UniProt P34947)).
It gave 96.9% for remaining activity (CAMK1D (Homo sapiens, UniProt Q8IU85)).
The remaining activity was 93.9% (NEK9 (Homo sapiens, UniProt Q8TD19)).
It gave 97.6% for remaining activity (BRSK1 (Homo sapiens, UniProt Q8TDC3)).
MAPK10 (Homo sapiens, UniProt P53779) — remaining activity: 78.4%.
CDK7 (Homo sapiens, UniProt P50613) — remaining activity: 105%.
It gave 99.3% for remaining activity (Cyclin-dependent kinase 2, with cyclin A (CDK2, Homo sapiens, UniProt P24941)).
SLK (Homo sapiens, UniProt Q9H2G2) — remaining activity: 105%.
The remaining activity was 102% (ROS1 (Homo sapiens, UniProt P08922)).
The remaining activity was 94.8% (PKN2 (Homo sapiens, UniProt Q16513)).
It gave 132% for remaining activity (Aurora kinase A (AURKA, Homo sapiens, UniProt O14965)).
For HIPK3 (Homo sapiens, UniProt Q9H422): remaining activity read 101%.
The remaining activity was 103% (RET (Homo sapiens, UniProt P07949)).
It gave 95.6% for remaining activity (DYRK4 (Homo sapiens, UniProt Q9NR20)).
The remaining activity was 98.8% (CSNK2A2 (Homo sapiens, UniProt P19784)).
DMPK (Homo sapiens, UniProt Q09013) — remaining activity: 105%.
MAP3K8 (Homo sapiens, UniProt P41279) — remaining activity: 99.4%.

Repeated from above (series 3):
The inhibition was 4.33% (ADRA1B (Homo sapiens, UniProt P35368)).
It gave 4.51% for inhibition (HTR7 (Homo sapiens, UniProt P34969)).
The inhibition was 10.9% (HRH4 (Homo sapiens, UniProt Q9H3N8)).
For CHRM2 (Homo sapiens, UniProt P08172): inhibition read -10.6%.
It gave 12.8% for inhibition (SIGMAR1 (Homo sapiens, UniProt Q99720)).
